Experimental data collected from several papers.
Each numbered part is a random draw from the data of one study; scales do not carry over between parts. Substitutions count along the parent as printed.

Study 1
Target: CCND1, cyclin fold, Cln2 fusion (human)
Technique: yeast growth competition, sequencing
Matrix: yeast
Notes: weak parent motif
Baseline: not given
Reading: higher = stronger binding
Parent: MICAL3 docking peptide (human); LQLRRQLSFSEDS; partner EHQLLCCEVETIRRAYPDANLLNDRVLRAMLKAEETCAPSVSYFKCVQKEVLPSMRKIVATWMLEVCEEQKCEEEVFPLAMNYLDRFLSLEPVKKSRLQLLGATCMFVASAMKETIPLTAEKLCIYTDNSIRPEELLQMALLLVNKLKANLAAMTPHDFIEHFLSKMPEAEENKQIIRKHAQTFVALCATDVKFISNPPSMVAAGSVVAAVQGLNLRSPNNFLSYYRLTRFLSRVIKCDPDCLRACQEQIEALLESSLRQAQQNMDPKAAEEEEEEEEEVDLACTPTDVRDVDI
| Variant | normalised enrichment score |
| --- | --- |
| LQLRRQCSFSEDS [L7C] | 0.0139 |
| LQLRRQESFSEDS [L7E] | 0.276 |
| LQLRRQLIFSEDS [S8I] | 0.127 |
| LQLCRQLSFSEDS [R4C] | 1.33 |
| LQLRRQLSESEDS [F9E] | 0.0678 |
| LQLRRQVSFSEDS [L7V] | 0.0499 |
| LQLDRQLSFSEDS [R4D] | 0.317 |
| LQLRRQLSYSEDS [F9Y] | -0.0265 |
| LQLMRQLSFSEDS [R4M] | 0.234 |

Study 2
Target: ABI1, truncated, D143A, DHFR fusion (Arabidopsis thaliana)
Technique: DHFR PCA, deep sequencing
Matrix: yeast
Notes: methotrexate growth selection, single substitutions
Together with: (+)-ABA 1.4 µM
Baseline: wild-type fitted maximum
Reading: higher = stronger binding
Parent: PYL1, truncated, DHFR fusion (Arabidopsis thaliana); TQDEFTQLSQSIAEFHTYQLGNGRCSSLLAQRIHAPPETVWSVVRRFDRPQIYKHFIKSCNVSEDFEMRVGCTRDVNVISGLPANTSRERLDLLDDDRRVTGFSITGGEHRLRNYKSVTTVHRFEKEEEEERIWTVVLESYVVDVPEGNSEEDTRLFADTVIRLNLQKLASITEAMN; partner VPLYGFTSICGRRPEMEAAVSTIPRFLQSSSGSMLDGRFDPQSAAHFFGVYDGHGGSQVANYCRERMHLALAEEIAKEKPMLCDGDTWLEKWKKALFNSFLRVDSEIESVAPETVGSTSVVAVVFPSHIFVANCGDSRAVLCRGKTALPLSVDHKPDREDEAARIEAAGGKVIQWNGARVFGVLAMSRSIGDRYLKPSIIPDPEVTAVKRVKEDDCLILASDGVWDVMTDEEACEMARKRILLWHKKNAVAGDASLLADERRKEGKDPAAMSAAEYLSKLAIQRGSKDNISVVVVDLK
| Variant | relative binding score |
| --- | --- |
| R163T | 49.9% |
| A170V | -6.22% |
| S140F | -17% |
| T173H | -4.78% |
| S9G | 50.9% |
| E174N | 2.87% |
| A158C | 85.4% |
| P50F | -10.8% |
| T101L | 68.5% |
| F47V | 0.385% |
| R32N | -3.36% |
| T86D | 37.5% |
| T6V | 69.1% |
| C25R | -13% |

Study 3
Target: Interferon regulatory factor 7, full length, phosphomimetic (IRF7, Homo sapiens, UniProt Q92985, residues 1-503, S101K/S471D/S472D/S475D/S476D/S477D/S483D/S484D/S487D)
UniProt Q92985, sequence (whole entry, unmodified, looked up): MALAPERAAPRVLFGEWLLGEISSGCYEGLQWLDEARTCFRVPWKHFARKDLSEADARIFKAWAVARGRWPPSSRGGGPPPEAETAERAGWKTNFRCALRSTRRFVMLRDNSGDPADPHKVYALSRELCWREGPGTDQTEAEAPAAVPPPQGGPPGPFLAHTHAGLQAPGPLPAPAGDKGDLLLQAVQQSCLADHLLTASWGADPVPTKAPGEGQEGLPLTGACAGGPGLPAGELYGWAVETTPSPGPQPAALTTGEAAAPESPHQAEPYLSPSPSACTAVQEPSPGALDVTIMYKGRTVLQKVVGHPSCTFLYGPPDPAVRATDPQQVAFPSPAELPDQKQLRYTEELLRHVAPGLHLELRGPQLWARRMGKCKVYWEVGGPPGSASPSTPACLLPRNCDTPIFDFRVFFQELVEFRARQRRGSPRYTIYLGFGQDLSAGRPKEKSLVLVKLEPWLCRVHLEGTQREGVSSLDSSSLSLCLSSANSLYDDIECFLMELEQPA
Technique: protein-binding microarray
Molecule type: double-stranded DNA, one strand shown
Matrix: in vitro
Concentration: 250 nM
Notes: 60-bp whole probe
Together with: salmon DNA 0.4 mg/ml
Baseline: random background probes
Reading: higher = stronger binding
Constant ends, left off below: GCCTAGCAC … GTCTTGATTCGCTTGACGCTGCTG
| Strand | log fluorescence [z-score] |
| --- | --- |
| GACGCTTTCGACTATCGGGACGTGCTA | 0.666 |
| TTAGATTTCGGGTTTCGAGTAGTGCTA | 4.84 |
| TTTCCTTTATGTCCTGTCTAGTGCTAG | 2.22 |
| TCATGTCTGGGTATTTTACTGTGCTAG | -0.852 |
| GACGATATCCGTTTCGAGACGTGCTAG | 1.78 |
| GACGGTTTCGGGACTGGGGATGTGCTA | 3.7 |
| GACGATTTCAGTATCCAGACGTGCTAG | 0.135 |
| TTAGGTATCGGGAATGGGTTAGTGCTA | 0.194 |
| GACGGTCACGGACTGGGGACGTGCTAG | -0.618 |
| GACGATTTCAGTTCCGCGACGTGCTAG | 0.77 |
| GACAGTCTCCTACTGCTGACGTGCTAG | -0.261 |
| GACGGTATCCTTTTCCCGACGTGCTAG | 1.39 |
| TCACTCGTGTTTTTCTCACTGTGCTAG | 0.694 |
| TGAGATATCGGGACTGGATTAGTGCTA | -0.214 |
| GAGGGACTGGGTCTCGGGACGTGCTAG | -0.3 |

Further values, each from its own experiment
| Molecule | target | assay | system | conditions | how to read | endpoint | value |
| --- | --- | --- | --- | --- | --- | --- | --- |
| PhoQ, residues 284 288 289 292 302 303 NLMGRA | PhoP, residues 12 14 15 18 19 LHHVQ (Escherichia coli, UniProt P23836) | Sort-seq, refers to: YFP reporter | E. coli | PhoQ-PhoP variant library, together with: 10 µM Mg2+ | baseline: high Mg2+ state, higher = stronger signaling | fold induction | 2.59 |

A few entries again (study 3):
| Strand | log fluorescence [z-score] |
| --- | --- |
| GACGATTTCAGTATCCAGACGTGCTAG | 0.135 |
| TTAGGTATCGGGAATGGGTTAGTGCTA | 0.194 |
| GACGGTCACGGACTGGGGACGTGCTAG | -0.618 |
| GACGATTTCAGTTCCGCGACGTGCTAG | 0.77 |
| GACAGTCTCCTACTGCTGACGTGCTAG | -0.261 |
| GACGGTATCCTTTTCCCGACGTGCTAG | 1.39 |
